{"data": "Measured values of several laboratories", "BCHE": "Cholinesterase (BCHE, Homo sapiens, UniProt P06276)", "note": "Each line is one published result; not all experiments were run side by side. Values joined by “and” are separate records of one study, mostly repeats; a detail may differ. Numbers after ± are the reported error."}
{"SMILES": "CCOC(=O)C1(CCOc2ccccc2)CCN(Cc2ccc(O)c(Cl)c2)CC1", "target or system": "BCHE", "conditions": "concentration not given, Triton", "quantity": "efficacy", "value": "-90.8 ± 8.17%"}
{"SMILES": "CNC(=O)[C@@H](c1ccccc1)N1CCc2cc(OC)c(OC)cc2[C@@H]1CCc1ccc(C(F)(F)F)cc1", "target or system": "Orexin receptor type 2 (HCRTR2, Homo sapiens, UniProt O43614, del254-292/I293E/K294R/L160H/M161K/Q254E)", "assay": "fluorescence sensor response, fluorescence", "conditions": "concentration not given", "quantity": "normalised fluorescence response", "value": "-0.519 and -2.17 and -2.14 and -0.661"}
{"SMILES": "CN1CCc2cc(Cl)c(O)cc2[C@@H](c2cccc3c2OCC3)C1", "target or system": "BCHE", "conditions": "concentration not given, Triton", "quantity": "efficacy", "value": "-118 ± 19.2%"}
{"SMILES": "CN(C(=O)n1cnc(-c2ccc[n+]([O-])c2)c1)C1CCCCC1", "target or system": "Type-1 angiotensin II receptor (AGTR1, Homo sapiens, UniProt P30556)", "assay": "radioligand binding, inhibitor", "conditions": "10 µM", "quantity": "inhibition", "value": "6%"}
{"SMILES": "COc1ccc2c(c1)CN(C(=O)CCN1CCC(Cc3ccccc3)CC1)CCS2.COc1ccc2c(c1)CN(C(=O)CCN1CCC(Cc3ccccc3)CC1)CCS2.O=C(O)/C=C/C(=O)O", "target or system": "BCHE", "conditions": "concentration not given, Triton", "quantity": "efficacy", "value": "-74.1 ± 5.71%"}
{"SMILES": "CNC1(c2ccccc2Cl)CCCCC1=O (racemic)", "target or system": "Neuronal acetylcholine receptor; alpha4/beta2 (Homo sapiens, UniProt P17787+P43681)", "assay": "radioligand binding, agonist, radioligand displacement", "conditions": "30 µM", "quantity": "inhibition", "value": "2%"}
{"SMILES": "CCC1=C[C@@H]2CN3CCc4c([nH]c5ccccc45)[C@@](C(=O)OC)(C2)[C@@H]13", "target or system": "BCHE", "conditions": "concentration not given, Triton", "quantity": "efficacy", "value": "-81 ± 14.3%"}
{"SMILES": "O=C(Nc1cnccc1Cl)N1CCN(Cc2ccc3c(c2)OC(F)(F)O3)CC1", "target or system": "B2 bradykinin receptor (BDKRB2, Homo sapiens, UniProt P30411)", "assay": "binding", "conditions": "10 µM, with: [3H]bradykinin", "quantity": "inhibition", "value": "1%"}
{"SMILES": "COC1=CC(=O)c2c(O)c3c(c(O)c2C1=O)O[C@]1(Oc2c(cc4cc(C)oc(=O)c4c2O)[C@@H](O)[C@@H]1O)[C@@H]3O", "target or system": "Staphylococcus aureus", "assay": "RNA-Seq, measured: NADH dehydrogenase subunit gene", "system": "MRSA ATCC 433000", "conditions": "MIC, 12 h", "how to read": "relative to: untreated", "quantity": "log2 fold change", "value": 1.36}
{"SMILES": "O=C(Nc1cccnn1)N1CCC(=Cc2cccc(Oc3ccc(C(F)(F)F)cn3)c2)CC1", "target or system": "glycine transporter, rat", "assay": "binding", "conditions": "50 µM, with: [3H]glycine", "quantity": "inhibition", "value": "85%"}
{"SMILES": "NCC(O)C1CCCCCCC1 (stereo not drawn)", "target or system": "Plasmodium falciparum", "system": "Dd2", "quantity": "IC50", "value": "10 µM"}
{"SMILES": "CCC(C)CNCC(=O)N1CCc2sccc2C1COc1cccc(C)c1 (stereo not drawn)", "target or system": "BCHE", "conditions": "concentration not given, Triton", "quantity": "efficacy", "value": "-87.8 ± 8.02%"}
{"SMILES": "C[C@H]1CN(c2n[nH]c3nc(N[C@H]4CC[C@H](NS(=O)(=O)CCC(F)(F)F)CC4)ncc23)CCO1", "target or system": "MICOS complex subunit MIC60 (Homo sapiens, UniProt Q16891)", "assay": "Kinobeads competition, measured: IMMT", "conditions": "0.032 µM, unit not given", "how to read": "relative to: vehicle", "quantity": "remaining binding", "value": 1.04}
{"SMILES": "CC(C)C[C@H](NC(=O)[C@H](CCC(N)=O)NC(=O)[C@H](CO)NC(=O)[C@H](CO)NC(=O)[C@H](CCCNC(=N)N)NC(=O)[C@H](CCCNC(=N)N)NC(=O)[C@H](CCCNC(=N)N)NC(=O)[C@H](CC(C)C)NC(=O)[C@H](Cc1c[nH]cn1)NC(=O)[C@@H](NC(=O)[C@H](CCCCN)NC(=O)[C@H](CCCNC(=N)N)NC(=O)[C@H](CCCNC(=N)N)NC(=O)[C@H](CCCNC(=N)N)NC(=O)[C@H](CCC(N)=O)NC(=O)[C@H](CCCNC(=N)N)NC(=O)[C@H](CCCNC(=N)N)NC(=O)[C@H](CCCCN)NC(=O)[C@H](CCCCN)NC(=O)[C@H](CCCNC(=N)N)NC(=O)CNC(=O)[C@@H](N)Cc1ccc(O)cc1)[C@@H](C)O)C(=O)N[C@@H](CCCCN)C(N)=O", "target or system": "rat CA1 pyramidal neurons", "assay": "GABAA receptor-mediated mIPSCs", "conditions": "concentration not given", "quantity": "mIPSC frequency", "value": "decreased"}
{"SMILES": "COc1ccc(N2C(=O)N(c3c(C)cccc3Cl)Cc3cnc(Nc4ccc(C5CCN(C)CC5)cc4OC)nc32)nc1", "target or system": "Serine/threonine-protein kinase ULK1 (ULK1, Homo sapiens, UniProt O75385)", "assay": "kinase activity", "conditions": "0.5 µM", "quantity": "inhibition", "value": "12%"}
{"SMILES": "CN1CCN(c2cc(-c3ccncc3)c(-c3ccc4ccccc4c3)nn2)CC1", "target or system": "Orexin receptor type 2 (HCRTR2, Homo sapiens, UniProt O43614)", "assay": "antagonist, FLIPR", "conditions": "10 µM", "quantity": "inhibition", "value": "32.6%"}
{"SMILES": "Oc1ccc2c3c1O[C@H]1[C@@H](O)CC[C@@]4(O)[C@@H](C2)N(CC2CCC2)CC[C@]314", "target or system": "Probable G-protein coupled receptor 27 (Homo sapiens, UniProt Q9NS67)", "assay": "β-arrestin recruitment, TANGO luminescence, measured: GPR27", "conditions": "concentration not given", "how to read": "relative to: basal luminescence", "quantity": "log2 fold change", "value": -0.119}
{"SMILES": "O=C(c1ccc(Cl)cc1)N1CCN2C(=O)N(OC(=O)N3CCOc4ccccc43)C(=O)C2C1 (stereo not drawn)", "target or system": "Acyl-protein thioesterase 2 (Homo sapiens, UniProt O95372)", "assay": "MS-based ABPP", "system": "SW-620 conditioned medium", "conditions": "10 µM, 1 h, 37 °C", "how to read": "relative to: compound over DMSO, lower = more inhibition", "quantity": "mean protein ratio", "value": 1.06}
{"SMILES": "O=c1nc(-c2ccccn2)sc2ccccc12", "target or system": "BCHE", "assay": "inhibitor", "quantity": "efficacy", "value": "-94.6 ± 2.01%"}
{"SMILES": "CCCN(CCC)[C@H]1CCc2c(F)ccc(O)c2C1", "target or system": "Plasmodium falciparum", "system": "D10", "quantity": "IC50", "value": "2.51 µM"}
{"SMILES": "CC[C@H](C)[C@H](NC(=O)CNC(=O)[C@@H](N)CCCCN)C(=O)N[C@@H](CC(C)C)C(=O)N[C@@H](CCCCN)C(=O)N[C@@H](CCCNC(=N)N)C(=O)N[C@@H](CCC(=O)O)C(=O)N[C@@H](CCCCN)C(=O)N[C@@H](CCCNC(=N)N)C(=O)N[C@@H](CC(C)C)C(=O)N[C@@H](CCCNC(=N)N)C(=O)N[C@@H](CCCNC(=N)N)C(=O)N[C@@H](CCCCN)C(=O)N[C@@H](CC(N)=O)C(=O)N[C@H](C(=O)N[C@@H](Cc1c[nH]cn1)C(=O)N[C@@H](Cc1c[nH]c2ccccc12)C(=O)N1CCC[C@H]1C(=O)N[C@@H](CCC(=O)O)C(=O)N[C@@H](CCC(=O)O)C(=O)NCC(=O)N[C@@H](CCCCN)C(=O)N[C@@H](CC(C)C)C(=O)N[C@@H](CCCNC(=N)N)C(=O)N[C@@H](CCC(=O)O)C(=O)N[C@@H](Cc1ccc(O)cc1)C(=O)N[C@@H](Cc1ccccc1)C(=O)N[C@@H](Cc1ccc(O)cc1)C(=O)N[C@@H](Cc1ccccc1)C(=O)N[C@@H](CCC(=O)O)C(=O)N[C@@H](CC(C)C)C(=O)N[C@@H](CC(=O)O)C(=O)N[C@@H](CCC(=O)O)C(=O)N[C@@H](C)C(=O)N[C@@H](CCC(=O)O)C(=O)N[C@@H](CCCNC(=N)N)C(=O)N[C@H](C(=O)N[C@@H](CC(N)=O)C(=O)N[C@H](C(=O)O)C(C)C)C(C)C)C(C)C", "target or system": "HeLa and HEK-293T cells", "assay": "phosphatase bead binding, competitive inhibitor, PIB pulldown iBAQ LC-MS/MS, measured: SLMAP", "conditions": "concentration not given", "how to read": "relative to: untreated control", "quantity": "log2 fold change", "value": -0.0128}
{"note": "Repeated from above:"}
{"SMILES": "O=c1nc(-c2ccccn2)sc2ccccc12", "target or system": "BCHE", "assay": "inhibitor", "quantity": "efficacy", "value": "-94.6 ± 2.01%"}
{"SMILES": "CCCN(CCC)[C@H]1CCc2c(F)ccc(O)c2C1", "target or system": "Plasmodium falciparum", "system": "D10", "quantity": "IC50", "value": "2.51 µM"}
{"SMILES": "CC[C@H](C)[C@H](NC(=O)CNC(=O)[C@@H](N)CCCCN)C(=O)N[C@@H](CC(C)C)C(=O)N[C@@H](CCCCN)C(=O)N[C@@H](CCCNC(=N)N)C(=O)N[C@@H](CCC(=O)O)C(=O)N[C@@H](CCCCN)C(=O)N[C@@H](CCCNC(=N)N)C(=O)N[C@@H](CC(C)C)C(=O)N[C@@H](CCCNC(=N)N)C(=O)N[C@@H](CCCNC(=N)N)C(=O)N[C@@H](CCCCN)C(=O)N[C@@H](CC(N)=O)C(=O)N[C@H](C(=O)N[C@@H](Cc1c[nH]cn1)C(=O)N[C@@H](Cc1c[nH]c2ccccc12)C(=O)N1CCC[C@H]1C(=O)N[C@@H](CCC(=O)O)C(=O)N[C@@H](CCC(=O)O)C(=O)NCC(=O)N[C@@H](CCCCN)C(=O)N[C@@H](CC(C)C)C(=O)N[C@@H](CCCNC(=N)N)C(=O)N[C@@H](CCC(=O)O)C(=O)N[C@@H](Cc1ccc(O)cc1)C(=O)N[C@@H](Cc1ccccc1)C(=O)N[C@@H](Cc1ccc(O)cc1)C(=O)N[C@@H](Cc1ccccc1)C(=O)N[C@@H](CCC(=O)O)C(=O)N[C@@H](CC(C)C)C(=O)N[C@@H](CC(=O)O)C(=O)N[C@@H](CCC(=O)O)C(=O)N[C@@H](C)C(=O)N[C@@H](CCC(=O)O)C(=O)N[C@@H](CCCNC(=N)N)C(=O)N[C@H](C(=O)N[C@@H](CC(N)=O)C(=O)N[C@H](C(=O)O)C(C)C)C(C)C)C(C)C", "target or system": "HeLa and HEK-293T cells", "assay": "phosphatase bead binding, competitive inhibitor, PIB pulldown iBAQ LC-MS/MS, measured: SLMAP", "conditions": "concentration not given", "how to read": "relative to: untreated control", "quantity": "log2 fold change", "value": -0.0128}
